Measured values pooled from the literature.
Each numbered part is a random draw from the data of one study; scales do not carry over between parts.

Block 1
Target: Sal-like protein 4, full length isoform B (SALL4, Homo sapiens, UniProt Q9UJQ4-2, residues 1-616)
Technique: universal PBM
Form: double-stranded DNA, one strand shown
Matrix: in vitro
Tested at: not given
Setting: 8-mer, flanks averaged, mean of replicates
Reading: higher = stronger binding
Construct (chain): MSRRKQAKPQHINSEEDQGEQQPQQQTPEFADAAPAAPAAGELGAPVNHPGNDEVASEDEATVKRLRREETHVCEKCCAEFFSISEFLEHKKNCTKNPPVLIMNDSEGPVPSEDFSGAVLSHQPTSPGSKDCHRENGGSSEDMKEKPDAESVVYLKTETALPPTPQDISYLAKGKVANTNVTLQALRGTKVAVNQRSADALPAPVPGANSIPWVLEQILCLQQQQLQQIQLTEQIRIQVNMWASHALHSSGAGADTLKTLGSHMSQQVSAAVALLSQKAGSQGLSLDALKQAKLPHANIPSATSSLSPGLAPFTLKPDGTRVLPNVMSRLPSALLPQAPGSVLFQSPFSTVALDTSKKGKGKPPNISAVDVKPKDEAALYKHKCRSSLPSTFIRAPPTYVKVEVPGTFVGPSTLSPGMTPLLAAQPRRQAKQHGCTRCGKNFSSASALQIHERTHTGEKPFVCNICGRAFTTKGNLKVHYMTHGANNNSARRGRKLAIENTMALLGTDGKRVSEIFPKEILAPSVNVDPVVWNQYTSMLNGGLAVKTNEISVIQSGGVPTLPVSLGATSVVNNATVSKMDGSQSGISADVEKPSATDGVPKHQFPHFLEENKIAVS
| Strand | E-score |
| --- | --- |
| AACAGCAA | 0.124 |
| CATTGTAG | 0.0946 |
| GCAGTTAA | 0.0563 |

Block 2
Target: Transcription factor Sp1 (SP1, Homo sapiens, UniProt P08047, residues 1-785, full length assumed)
Chain of UniProt P08047 (whole entry, looked up): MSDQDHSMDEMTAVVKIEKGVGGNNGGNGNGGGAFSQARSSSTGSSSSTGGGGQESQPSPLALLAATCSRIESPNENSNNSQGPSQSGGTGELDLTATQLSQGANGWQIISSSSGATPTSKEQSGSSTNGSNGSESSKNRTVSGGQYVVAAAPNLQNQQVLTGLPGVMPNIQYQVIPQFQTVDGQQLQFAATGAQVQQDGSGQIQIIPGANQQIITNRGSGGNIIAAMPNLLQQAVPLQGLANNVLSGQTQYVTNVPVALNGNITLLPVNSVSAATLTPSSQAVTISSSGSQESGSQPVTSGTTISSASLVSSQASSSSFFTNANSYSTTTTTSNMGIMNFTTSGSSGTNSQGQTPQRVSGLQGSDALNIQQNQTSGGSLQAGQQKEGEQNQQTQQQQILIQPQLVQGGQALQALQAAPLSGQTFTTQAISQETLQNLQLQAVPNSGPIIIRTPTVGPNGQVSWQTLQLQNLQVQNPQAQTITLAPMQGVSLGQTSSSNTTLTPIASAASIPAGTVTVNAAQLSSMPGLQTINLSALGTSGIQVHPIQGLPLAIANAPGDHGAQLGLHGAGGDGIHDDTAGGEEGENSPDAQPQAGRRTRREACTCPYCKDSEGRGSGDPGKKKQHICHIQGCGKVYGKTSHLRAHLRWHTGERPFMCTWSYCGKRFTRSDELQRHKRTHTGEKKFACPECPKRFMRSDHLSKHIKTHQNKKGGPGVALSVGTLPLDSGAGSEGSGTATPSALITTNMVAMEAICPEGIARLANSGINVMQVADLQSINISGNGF
Technique: protein-binding microarray
Form: double-stranded DNA, one strand shown
Matrix: in vitro
Tested at: not given
Setting: k-mer, scored over probes, only values ≥0.25
Reading: higher = stronger binding
| Strand | E-score |
| --- | --- |
| CGCGTTAC | 0.264 |
| ACACGCCC | 0.414 |
| ATGTTACC | 0.254 |
| ACCTCCCC | 0.413 |

Block 3
Target: Histone acetyltransferase KAT6A, both winged helices, GST fusion (KAT6A, Homo sapiens, UniProt Q92794, residues 1-181)
Technique: protein binding microarray
Form: double-stranded DNA, one strand shown
Matrix: in vitro
Tested at: not given
Setting: 8-mer, flanks averaged, mean of 2 arrays, mostly near background
Baseline: not given
Reading: higher = stronger binding
Residues (chain): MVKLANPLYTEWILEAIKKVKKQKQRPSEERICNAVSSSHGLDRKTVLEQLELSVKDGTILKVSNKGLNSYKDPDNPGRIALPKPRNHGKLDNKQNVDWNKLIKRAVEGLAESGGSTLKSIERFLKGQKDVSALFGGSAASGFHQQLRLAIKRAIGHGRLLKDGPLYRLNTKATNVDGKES
| Strand | E-score |
| --- | --- |
| ATGCAGGA | -0.258 |
| CACTCCTC | -0.272 |
| CGCCGCAC | 0.293 |

Further values, each from its own experiment
| Substance | target | assay | test system | conditions | scale | quantity | value |
| --- | --- | --- | --- | --- | --- | --- | --- |
| PhoQ, residues 284 288 289 292 302 303 TAVSDG | PhoP, residues 12 14 15 18 19 FWNTL (Escherichia coli, UniProt P23836) | Sort-seq, item: YFP reporter | E. coli | PhoQ-PhoP variant library, added: 10 µM Mg2+ | baseline: high Mg2+ state, higher = stronger signaling | fold induction | 4.25 |
